# Measured values from different studies.
# Compare with care: the assays were run in different laboratories. Values joined by “and” are separate records of one study, mostly repeats; a detail may differ. ± gives the spread as reported.
# Organism: Escherichia coli
Structure (SMILES),assay,test system,conditions,how to read,measurement,value
O=S(=O)(O)c1ccc(-c2ccc(S(=O)(=O)O)cc2)cc1,"bacterial growth, broth microdilution",expressing OXA-48,"4 µg/mL, with: ampicillin",MIC of ampicillin,MIC of ampicillin,512 µg/mL
NC[C@@H](NC[C@@H]1CCCN1C[C@@H](CO)NC[C@@H](NCCc1ccc(Cl)c(Cl)c1)c1ccccc1)c1ccccc1,bacterial growth,,compound alone,,IC50,11.7 µM
C[C@H](CS)C(=O)N[C@@H](Cc1c[nH]c2ccccc12)C(=O)O,,VIM-1 producing,"10 µM, with: meropenem",,MIC of meropenem,16 µg/mL
O=S(=O)(O)c1ccc2c(c1)Cc1cc(S(=O)(=O)O)ccc1-2,"bacterial growth, broth microdilution",expressing OXA-48,"32 µg/mL, with: ampicillin",MIC of ampicillin,MIC of ampicillin,256 µg/mL
CC(C)[C@H](NC(=O)N[C@@H](CCCCN)C(=O)N[C@@H](CNC(=O)CCCCCCCCCCS)C(=O)NCCCNC(C[C@H]1O[C@@H](n2ccc(=O)[nH]c2=O)[C@H](O)[C@@H]1O)C(=O)O)C(=O)O (stereo partly drawn),growth,delta tolC,,,IC50,23 ± 6 µM
NC[C@@H](NC[C@@H]1CCCN1C[C@@H](CO)NC[C@@H](NCCc1ccc(-c2ccccc2)cc1)c1ccccc1)c1ccccc1,bacterial growth,,compound alone,,IC50,16 µM and 16.2 µM
O=C(O)c1ccc(-c2cccc(C(=O)O)c2)cc1,"bacterial growth, broth microdilution",expressing OXA-48,"8 µg/mL, with: ampicillin",MIC of ampicillin,MIC of ampicillin,512 µg/mL
CC(C)Oc1c(NC(=O)c2ccc(NC(=O)[C@H](CC(N)=O)NC(=O)c3cc(F)c(/N=N/c4c(Cl)cc(C#N)cc4Cl)c(F)c3)cc2)ccc(C(=O)N/N=C/c2c(F)cc(C(=O)O)cc2F)c1O,,BW25113,dark-adapted ground state,,MIC,> 6.4 µg/mL
CC(CCN[C@H](CN[C@H](CO)CN1CCC[C@H]1CN[C@H](CN)c1ccccc1)c1ccccc1)c1ccccc1 (stereo partly drawn),bacterial growth,,compound alone,,IC90,> 24 µM

# For quick reference, copied from above:
Structure (SMILES),assay,test system,conditions,how to read,measurement,value
CC(CCN[C@H](CN[C@H](CO)CN1CCC[C@H]1CN[C@H](CN)c1ccccc1)c1ccccc1)c1ccccc1 (stereo partly drawn),bacterial growth,,compound alone,,IC90,> 24 µM
